Experimental data from different studies.
Protocols differ between the studies behind these lines. Values joined by “and” are separate records of one study, mostly repeats; a detail may differ. ± marks the error that the study gave.
Sequence of UniProt P37231 (whole entry, looked up): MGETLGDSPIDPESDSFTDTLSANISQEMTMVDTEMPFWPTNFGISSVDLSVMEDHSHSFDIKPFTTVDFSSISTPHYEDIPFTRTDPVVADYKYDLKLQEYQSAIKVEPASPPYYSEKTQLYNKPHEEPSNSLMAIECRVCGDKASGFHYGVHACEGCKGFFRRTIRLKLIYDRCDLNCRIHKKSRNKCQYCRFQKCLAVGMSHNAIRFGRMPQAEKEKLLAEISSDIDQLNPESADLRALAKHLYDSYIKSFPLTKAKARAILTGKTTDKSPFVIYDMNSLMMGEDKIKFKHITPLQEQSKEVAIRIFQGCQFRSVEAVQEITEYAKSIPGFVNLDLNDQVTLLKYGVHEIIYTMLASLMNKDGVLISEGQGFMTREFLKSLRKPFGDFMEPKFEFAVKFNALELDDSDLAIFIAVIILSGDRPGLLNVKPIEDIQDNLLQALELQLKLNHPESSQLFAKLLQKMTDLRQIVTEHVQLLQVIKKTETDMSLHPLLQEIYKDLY
Sequence of UniProt Q12809 (whole entry, looked up): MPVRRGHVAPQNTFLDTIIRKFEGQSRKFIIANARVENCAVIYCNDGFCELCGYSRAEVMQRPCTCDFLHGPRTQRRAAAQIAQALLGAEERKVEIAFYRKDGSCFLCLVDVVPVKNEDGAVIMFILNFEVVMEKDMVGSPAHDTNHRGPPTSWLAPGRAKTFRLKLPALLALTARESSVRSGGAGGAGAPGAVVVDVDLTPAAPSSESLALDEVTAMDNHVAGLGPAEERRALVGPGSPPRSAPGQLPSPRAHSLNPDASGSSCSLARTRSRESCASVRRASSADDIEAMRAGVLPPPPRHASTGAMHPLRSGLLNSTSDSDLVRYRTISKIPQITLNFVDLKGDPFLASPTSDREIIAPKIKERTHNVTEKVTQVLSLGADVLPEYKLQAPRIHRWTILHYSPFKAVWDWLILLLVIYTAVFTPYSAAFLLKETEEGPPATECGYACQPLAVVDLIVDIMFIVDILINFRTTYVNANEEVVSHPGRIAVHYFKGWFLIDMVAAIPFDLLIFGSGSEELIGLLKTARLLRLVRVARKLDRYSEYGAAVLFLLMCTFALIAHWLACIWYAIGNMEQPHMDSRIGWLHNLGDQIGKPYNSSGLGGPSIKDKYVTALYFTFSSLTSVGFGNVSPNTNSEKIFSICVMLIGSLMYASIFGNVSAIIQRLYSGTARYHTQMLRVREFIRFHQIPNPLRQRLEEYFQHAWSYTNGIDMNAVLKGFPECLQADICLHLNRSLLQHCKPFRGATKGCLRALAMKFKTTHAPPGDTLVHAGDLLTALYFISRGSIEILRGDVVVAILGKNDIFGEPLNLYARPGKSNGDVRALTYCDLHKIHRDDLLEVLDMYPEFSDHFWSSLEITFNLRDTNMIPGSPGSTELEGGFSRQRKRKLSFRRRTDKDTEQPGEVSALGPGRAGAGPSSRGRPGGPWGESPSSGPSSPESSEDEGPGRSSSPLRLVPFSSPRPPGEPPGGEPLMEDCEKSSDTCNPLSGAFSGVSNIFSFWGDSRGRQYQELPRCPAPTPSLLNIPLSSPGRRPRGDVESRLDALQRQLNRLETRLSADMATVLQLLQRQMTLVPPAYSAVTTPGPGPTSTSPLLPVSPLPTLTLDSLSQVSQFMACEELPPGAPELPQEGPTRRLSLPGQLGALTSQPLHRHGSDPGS

O=C1C2CC3CC1CC(C(=O)N1CCN(c4ccc([N+](=O)[O-])c5ncccc45)CC1)(C3)C2 — revertant fold increase (Salmonella typhimurium; Ames test; TA100; 0.02 µg/well, without S9; relative to: vehicle): 1
N#C[C@@H]1CC(F)(F)CN1C(=O)CNC(=O)c1ccnc2c(NC(=O)CCOCCOCCOCCOCCOCCOCCNC(=O)[C@H](CCCCNC(=O)CN3CCN(CC(=O)[O-])CCN(CC(=O)[O-])CCN(CC(=O)[O-])CC3)NC(=O)CCCc3ccc(I)cc3)cccc12.[177Lu+3] — tracer uptake (U-87 MG tumour model; host not given, bone; 4 h, tumour-bearing): 2.29 %ID/g
CNC(=O)C1CCCN(C(=O)C2CC3CCC2N3C(=O)[C@@H]2C[C@@H](O)CN2C(=O)NCc2cccc(Cl)c2F)C1 (mixture of isomers) — 6β-hydroxytestosterone formation (CYP3A4 (human); inhibitor, time-dependent inhibition; 0.206 µM, preincubated without NADPH, added: testosterone substrate): 168 ng/mL
O=C(OC[C@@]1(O)C(=O)C=C[C@H]2[C@@H]1[C@H]1C=C[C@@H]2C(=O)[C@]1(O)COC(=O)c1ccccc1)c1ccccc1 — IC50 (SW480; cell growth or viability, MTT): 155000 nM
Cc1c(Cc2cccc(OC(C)C(=O)O)c2)c2ccc(C(=O)NC(C)c3cccc(C4CC4)c3)cc2n1C (mixture of isomers) — IC50 (PPARG (Homo sapiens, UniProt P37231); ligand displacement, TR-FRET): 3 nM
COc1cccc(OC)c1-c1cc(C(=O)NC2(C(=O)O)C3CC4CC(C3)CC2C4)nn1-c1ccc(C(=O)N(C)CCCN(C)C(=O)[C@H](CCCCNC(=O)[C@H](CC(C)C)NC(=O)C2OC2C(=O)O)NC(=O)CN2CCN(CC(=O)[O-])CCN(CC(=O)[O-])CCN(CC(=O)[O-])CC2)cc1C(C)C.[177Lu+3] (mixture of isomers) — tracer uptake (HT-29 tumour model; host not given, bone; 24 h, tumour-bearing): 0.09 %ID/g
Cc1c(Cc2ccc(OC(C)(C)C(=O)O)cc2)c2ccc(C(=O)N[C@@H](C)c3ccc(C(F)(F)F)cc3)cc2n1C — IC50 (Peroxisome proliferator-activated receptor gamma, ligand-binding domain (PPARG, Homo sapiens, UniProt P37231); reporter gene, luciferase reporter; HEK293T, Gal4-PPARγ LBD): 2400 nM
CC(C)Cc1ccc(C(C)C(=O)N[C@@H](CCCCNC(=O)CCOCCOCCOCCOCCOCCOCCNC(=O)CN2CCN(CC(=O)[O-])CCN(CC(=O)[O-])CCN(CC(=O)[O-])CC2)C(=O)Nc2cccc3c(C(=O)NCC(=O)N4CC(F)(F)C[C@H]4C#N)ccnc23)cc1.[177Lu+3] (stereo partly drawn) — tracer uptake (U-87 MG tumour model; host not given, heart; 4 h, tumour-bearing): 2.89 %ID/g
O=C(Nc1cnccc1-c1ccc([18F])cc1)c1ccnc(NC(=O)C2CC2)c1 — SUV (FVB/NJ mouse, both sexes, brain; intravenous, 15 min): 0.24
N#C[C@@H]1CC(F)(F)CN1C(=O)CNC(=O)c1ccnc2c(NC(=O)[C@H](CCCCNC(=O)CCOCCOCCOCCOCCOCCOCCNC(=O)CN3CCN(CC(=O)[O-])CCN(CC(=O)[O-])CCN(CC(=O)[O-])CC3)NC(=O)CCCc3ccc(I)cc3)cccc12.[177Lu+3] — tracer uptake (U-87 MG tumour model; host not given, liver; 96 h, tumour-bearing): 0.91 %ID/g
C=C(NC(=O)c1csc(-c2nc3c(cc2O)-c2nc(cs2)C(=O)NC(C(C)O)C(=O)NC(=C(C)OC)c2nc(cs2)C(=O)NC2c4nc(cs4)C(=O)NC(COC(=O)c4c5c6c(cccc6n4O)COC(=O)C(OC4CC(C)(O)C(N(C)C)C(C)O4)C2OC5)c2nc-3cs2)n1)C(N)=O (stereo not drawn) — clearance (cynomolgus monkey, male, plasma; intravenous infusion, 9 mg/kg single dose): 3.3 mL/min/kg
COC1CN([C@H]2CC[C@H]([C@@]3(C)Oc4c(Cl)cc(C(=O)NCc5c(SC)cc(C)[nH]c5=O)c(C)c4O3)CC2)C1 — log2 fold change (RNA-seq, measured: LETM2; human, whole blood; dose not given, 24 h; relative to: pretreatment baseline): 1.17
CCN(CC)CC#CCNc1ccnc2cc(Cl)ccc12 — revertants (Salmonella typhimurium; mini-Ames test; TA102; 500.0 µg/well, with rat liver S9): 83 revertants/well and 90 revertants/well
C[C@@H](Nc1c(-c2c(F)cc(C#N)cc2F)c(Cl)nc2ncnn12)C(C)(C)C — mutagenicity (Salmonella typhimurium; Ames test; TA98 and TA100; 3.9 to 125 µg/mL): negative
O=C(Nc1cnccc1-c1ccc([18F])nc1)c1ccnc(NC(=O)C2CC2)c1 — SUV (GSK-3β imaging tracer; FVB/NJ mice, both sexes, brain; intravenous, 3 min, early frames, no P-gp inhibitor): 0.29 ± 0.14
N#C[C@@H]1CCCN1C(=O)CNC(=O)c1ccnc2ccc(OCCCN3CCN(C(=O)CCc4ccc(O)c(CN5CCN6CC(=O)[O][Al-]([18F])([O]C(=O)C5)[O]c5ccc(CCC(=O)N7CCN(CCCOc8ccc9nccc(C(=O)NCC(=O)N%10CCC[C@H]%10C#N)c9c8)CC7)cc5C6)c4)CC3)cc12 (stereo partly drawn) — tracer uptake (U-87 MG tumour model; host not given, intestine; 2 h, tumour-bearing): 4.03 %ID/g
Cl.NCc1ccc2c(c1)CN(C1CCC(=O)NC1=O)C2=O (stereo not drawn) — minimum viability (HuH-1; CellTiter-Glo; concentration not given, 72 h): 61.7 ± 3.76%
COC(=O)Nc1nc2cc(C(O)c3ccc(F)cc3)ccc2[nH]1 (stereo not drawn) — revertants (Salmonella typhimurium; Ames preincubation test; TA1537; 109.4 µg/plate, without S9): 12 revertants/plate
[Cu+2].c1cc2nc(c1)CNCc1cccc(n1)CNC2 — cathodic peak potential (Cu(II)/Cu(I) redox couple; cyclic voltammetry; DMF; added: TBAP; relative to: Fc/Fc+): -789 mV
CC(C)OCCOCc1ccc(OCC(O)CN(N=O)C(C)C)cc1 (stereo not drawn) — revertant fold increase (Salmonella typhimurium; Ames test; TA98; 500 µg/plate, 30 % rat S9; relative to: solvent control): 0.6 fold
COc1cccc(OC)c1-c1cc(C(=O)NC2(C(=O)O)C3CC4CC(C3)CC2C4)nn1-c1ccc(C(=O)N(C)CCOCCOCCN(C)C(=O)[C@H](CCCCNC(=O)[C@H](CC(C)C)NC(=O)C2OC2C(=O)O)NC(=O)CN2CCN(CC(=O)[O-])CCN(CC(=O)[O-])CCN(CC(=O)[O-])CC2)cc1C(C)C.[177Lu+3] (mixture of isomers) — tracer uptake (HT-29 tumour model; host not given, bone; 7 days, tumour-bearing): 0.002 %ID/g
COc1cc2nc(c1)CNCc1cc(OC)cc(n1)CNC2.[Cu+2] — peak potential separation (Cu(II)/Cu(I) redox couple; cyclic voltammetry; DMF; 0.1 M TBAP, 100 mV/s scan): 118 mV
CC(C)(C)NCC(SS(=O)(=O)O)c1ccccc1 (stereo not drawn) — body weight decrease (Schistosoma mansoni; perfusion day 44; infected Swiss Webster mice; 600 mg/kg single dose, dosed day 15 post-infection; relative to: vehicle control): 8%
O=C1NC2(CC2)COc2ncc(F)cc2[C@H]2COCCN2c2ccn3ncc1c3n2 — inhibition (KCNH2 (Homo sapiens, UniProt Q12809); potassium current, whole-cell patch clamp; CHO cells expressing hERG; 13.33 µM): 44.2 ± 5.17%

Repeated from above:
COC(=O)Nc1nc2cc(C(O)c3ccc(F)cc3)ccc2[nH]1 (stereo not drawn) — revertants (Salmonella typhimurium; Ames preincubation test; TA1537; 109.4 µg/plate, without S9): 12 revertants/plate
[Cu+2].c1cc2nc(c1)CNCc1cccc(n1)CNC2 — cathodic peak potential (Cu(II)/Cu(I) redox couple; cyclic voltammetry; DMF; added: TBAP; relative to: Fc/Fc+): -789 mV
CC(C)OCCOCc1ccc(OCC(O)CN(N=O)C(C)C)cc1 (stereo not drawn) — revertant fold increase (Salmonella typhimurium; Ames test; TA98; 500 µg/plate, 30 % rat S9; relative to: solvent control): 0.6 fold
